Assay results of several laboratories.
Compare with care: the assays were run in different laboratories. Values joined by “and” are separate records of one study, mostly repeats; a detail may differ. ± marks the error that the study gave.

CC(C)[C@@H]1NC(=O)[C@@H]2CSSC[C@@H]3NC(=O)[C@H]([C@@H](C)O)NC(=O)[C@@H]4CSSC[C@H](NC(=O)[C@H](C(C)C)NC(=O)[C@@H]5CCCN5C(=O)[C@H](CCCCN)NC(=O)CNC(=O)[C@H](CC(N)=O)NC(=O)[C@H](CCCNC(=N)N)NC(=O)[C@H]([C@@H](C)O)NC(=O)[C@H](CSSC[C@H](NC(=O)[C@H]([C@@H](C)O)NC(=O)CNC(=O)CNC1=O)C(=O)N[C@@H](CC(N)=O)C(=O)N[C@@H]([C@@H](C)O)C(=O)N1CCC[C@H]1C(=O)NCC(=O)N4)NC(=O)[C@H](C(C)C)NC(=O)[C@@H]1CCCN1C(=O)[C@H](Cc1c[nH]c4ccccc14)NC(=O)[C@H](CO)NC3=O)C(=O)NCC(=O)N[C@@H](CCC(=O)O)C(=O)N[C@@H]([C@@H](C)O)C(=O)N2  remaining peptide (HPLC; ammonium bicarbonate 0.1 M; 180 µM, 14 days, pH 9.0, 37 °C, deamidation stability): 41.4 ± 1.9%
CC(=O)OC/C(C)=C/CCP(=O)(OCOC(=O)c1ccccc1)Oc1ccc(C(C)C)cc1 (centres unmarked)  remaining compound (50% Sprague-Dawley rat plasma; 100 µM, 2 h, pH 7.5, 37 °C): 1.1%
CC[C@H](C)[C@H](NC(=O)[C@H](CCCCN)NC(=O)[C@H](CCC(=O)O)NC(=O)[C@H](CCCCN)NC(=O)[C@H](CO)NC(=O)[C@H](CCCCN)NC(=O)[C@H](CCCNC(=N)N)NC(=O)[C@H](Cc1ccccc1)NC(=O)[C@H](Cc1ccccc1)NC(=O)[C@H](CC(=O)O)NC(=O)CNC(=O)[C@H](CC(C)C)NC(=O)[C@@H](N)CC(C)C)C(=O)NCC(=O)N[C@@H](CCCCN)C(=O)N[C@@H](CCC(=O)O)C(=O)N[C@@H](Cc1ccccc1)C(=O)N[C@@H](CCCCN)C(=O)N[C@@H](CCCNC(=N)N)C(=O)N[C@H](C(=O)N[C@H](C(=O)N[C@@H](CCC(N)=O)C(=O)N[C@@H](CCCNC(=N)N)C(=O)N[C@H](C(=O)N[C@@H](CCCCN)C(=O)N[C@@H](CC(=O)O)C(=O)N[C@@H](Cc1ccccc1)C(=O)N[C@@H](CC(C)C)C(=O)N[C@@H](CCCNC(=N)N)C(=O)N[C@@H](CC(N)=O)C(=O)N[C@@H](CC(C)C)C(=O)N[C@H](C(=O)N1CCC[C@H]1C(=O)N[C@@H](CCCNC(=N)N)C(=O)N[C@H](C(=O)N[C@@H](CCC(=O)O)C(=O)N[C@@H](CO)C(=O)O)[C@@H](C)O)C(C)C)[C@@H](C)CC)C(C)C)[C@@H](C)CC  remaining intact peptide (LC-MS; 50% pooled human serum; 40 µM, 20 min, pH 7.5, 37 °C; baseline: 0 h): 7.96% and 9.52% and 6.43%
CC(C)[C@@H]1NC(=O)CNC(=O)[C@H](CC(N)=O)NC(=O)[C@H](CCCNC(=N)N)NC(=O)[C@H](Cc2ccc(O)cc2)NC(=O)[C@H](C(C)C)NC(=O)[C@@H](NC(=O)[C@@H](NC(=O)[C@H](CC(N)=O)NC(=O)[C@H](Cc2c[nH]c3ccccc23)NC(=O)[C@H](C)NC(=O)[C@H](Cc2ccccc2)NC(=O)CN)C(C)C)CSSC[C@@H](C(=O)N[C@@H](Cc2cnc[nH]2)C(=O)N[C@@H](CCCNC(=N)N)C(=O)N[C@@H](CCCNC(=N)N)C(=O)N[C@@H](C)C(=O)N[C@@H](CC(N)=O)C(N)=O)NC(=O)[C@H](C(C)C)NC(=O)[C@H](CCCNC(=N)N)NC1=O  remaining peptide (HPLC; mouse kidney homogenate; 2560 µM, 2.00 h, 37 °C, 50 mg/mL tissue): 43% and 55.7%
CC(C)C[C@@H]1NC(=O)CNC(=O)[C@H](CC(N)=O)NC(=O)[C@H](CCCNC(=N)N)NC(=O)[C@H]([C@@H](C)O)NC(=O)[C@@H]2CSSC[C@@H]3NC(=O)[C@H]([C@@H](C)O)NC(=O)CNC(=O)CNC(=O)[C@H](C(C)C)NC(=O)[C@@H]4CSSC[C@H](NC(=O)[C@H]([C@@H](C)O)NC(=O)[C@H](CSSC[C@H](NC(=O)[C@H](C(C)C)NC(=O)[C@@H]5CCCN5C1=O)C(=O)NCC(=O)N[C@@H](CCC(=O)O)C(=O)N[C@@H]([C@@H](C)O)C(=O)N4)NC(=O)CNC(=O)[C@@H]1CCCN1C(=O)[C@H]([C@@H](C)O)NC(=O)[C@H](CC(N)=O)NC3=O)C(=O)N[C@@H](CCCCN)C(=O)N[C@@H](Cc1c[nH]c3ccccc13)C(=O)N1CCC[C@H]1C(=O)N[C@@H](C(C)C)C(=O)N2  remaining peptide (HPLC; ammonium bicarbonate 0.1 M; 180 µM, 7 days, pH 9.0, 37 °C, deamidation stability): 56.7 ± 1.3%
CC(C)(C)[C@H](NC(=O)C(F)(F)F)C(=O)N1C[C@H]2[C@@H]([C@H]1C(=O)N[C@H](C#N)C[C@@H]1CCNC1=O)C2(C)C  remaining compound (mouse liver microsomes; 60 min, together with: NADPH): 5.9%
O=C/C=C/c1ccccc1  remaining concentration (FaSSGF; 2 h, pH 1.65, 37 °C): 270 ± 20 µg/mL
O=C(O)Cc1ccc(O)c(O)c1  IC50 (Plasmodium falciparum; W2): 5.01 µM
C/C(=C\CCP(=O)(OCOC(=O)CC1CCOCC1)Oc1ccc(C(C)C)cc1)CO (centres unmarked)  remaining compound (50% CD1 mouse plasma; 100 µM, 2 h, pH 7.5, 37 °C): 0%
CSCC[C@H](NC(=O)[C@H](CCCCN)NC(=O)[C@H](CCCNC(=N)N)NC(=O)[C@H](CO)NC(=O)[C@H](Cc1c[nH]c2ccccc12)NC(=O)[C@H](CCCNC(=N)N)NC(=O)[C@H](CC(C)C)NC(=O)[C@H](CO)NC(C)=O)C(=O)N1CCC[C@H]1C(=O)N[C@@H](CS)C(=O)N[C@H](C(=O)N[C@@H](CO)C(N)=O)C(C)C  remaining activity (12G5 competition, SUP-T1 cells; human plasma; concentration not given, 8 h): 76 ± 11%
CC(C)C[C@@H]1NC(=O)CNC(=O)[C@H](CCCCN)NC(=O)[C@H](CCCNC(=N)N)NC(=O)[C@H]([C@@H](C)O)NC(=O)[C@@H]2CSSC[C@@H]3NC(=O)[C@H]([C@@H](C)O)NC(=O)CNC(=O)CNC(=O)[C@H](C(C)C)NC(=O)[C@@H]4CSSC[C@H](NC(=O)[C@H](CCCCN)NC(=O)[C@H](CSSC[C@H](NC(=O)[C@H](C(C)C)NC(=O)[C@@H]5CCCN5C1=O)C(=O)NCC(=O)N[C@@H](CCC(=O)O)C(=O)N[C@@H]([C@@H](C)O)C(=O)N4)NC(=O)CNC(=O)[C@@H]1CCCN1C(=O)[C@H]([C@@H](C)O)NC(=O)[C@H](CC(N)=O)NC3=O)C(=O)N[C@@H](CO)C(=O)N[C@@H](Cc1c[nH]c3ccccc13)C(=O)N1CCC[C@H]1C(=O)N[C@@H](C(C)C)C(=O)N2  remaining peptide (HPLC; ammonium bicarbonate; 180 µM, 14 days, pH 9.0, 25 °C, deamidation stability): 100%
O=C(Cc1ccc(Cl)c(Cl)c1)N1CCCCC1CN1CCCC1 (centres unmarked)  IC50 (Plasmodium falciparum; 3D7): 12.6 µM
CC[C@H](C)[C@H](NC(C)=O)C(=O)N[C@@H](CC(C)C)C(=O)N[C@@H](CCCNC(=N)N)C(=O)N[C@@H](Cc1c[nH]c2ccccc12)C(=O)N[C@@H](CO)C(=O)N[C@@H](CCCNC(=N)N)C(=O)N[C@@H](CCCCN)C(=O)N[C@@H](CC(C)C)C(=O)N1CCC[C@H]1C(=O)N[C@@H](CS)C(=O)N[C@H](C(=O)N[C@@H](CO)C(N)=O)C(C)C  remaining activity (12G5 competition, SUP-T1 cells; human plasma; 20 µM, 2 h, 37 °C): 78 ± 4%
CC[C@@H](C)[C@@H](NC(=O)[C@@H](Cc1ccc(O)cc1)NC(=O)[C@H]1CCCN1C(=O)[C@@H](CCCNC(=N)N)NC(=O)[C@H](N)Cc1c[nH]cn1)C(=O)N[C@H](C)C(=O)N[C@H](Cc1c[nH]cn1)C(=O)N[C@H](CCCNC(=N)N)C(=O)N[C@@H](C(=O)N[C@H](Cc1ccc(O)cc1)C(=O)N[C@H](CO)C(=O)N[C@H](Cc1ccccc1)C(N)=O)C(C)C  remaining compound (10% human serum; 72 h): 93.1% and 92.4% and 91.6%
CC(C)C[C@@H]1NC(=O)CNC(=O)[C@H](CC(N)=O)NC(=O)[C@H](CCCNC(=N)N)NC(=O)[C@H]([C@@H](C)O)NC(=O)[C@@H]2CSSC[C@@H]3NC(=O)[C@H]([C@@H](C)O)NC(=O)CNC(=O)CNC(=O)[C@H](C(C)C)NC(=O)[C@@H]4CSSC[C@H](NC(=O)[C@H]([C@@H](C)O)NC(=O)[C@H](CSSC[C@H](NC(=O)[C@H](C(C)C)NC(=O)[C@@H]5CCCN5C1=O)C(=O)NCC(=O)N[C@@H](CCC(=O)O)C(=O)N[C@@H]([C@@H](C)O)C(=O)N4)NC(=O)CNC(=O)[C@@H]1CCCN1C(=O)[C@H]([C@@H](C)O)NC(=O)[C@H](CC(N)=O)NC3=O)C(=O)N[C@@H](CO)C(=O)N[C@@H](CCCCN)C(=O)N1CCC[C@H]1C(=O)N[C@@H](C(C)C)C(=O)N2  remaining peptide (HPLC; ammonium bicarbonate; 180 µM, 7 days, pH 9.0, 25 °C, deamidation stability): 94 ± 0.7%
CSCC[C@H](NC(=O)[C@H](N)Cc1ccccc1)C(=O)N[C@@H](CCCNC(=N)N)C(=O)N[C@@H](Cc1c[nH]c2ccccc12)C(=O)N[C@@H](CO)C(=O)N[C@@H](CCCNC(=N)N)C(=O)N[C@@H](CCCCN)C(=O)N[C@@H](CCSC)C(=O)N1CCC[C@H]1C(=O)N[C@@H](CS)C(=O)N[C@H](C(=O)N[C@@H](CO)C(N)=O)C(C)C  remaining activity (12G5 competition, SUP-T1 cells; human plasma; concentration not given, 2 h): 70 ± 5%
CC[C@@H](C)[C@@H](NC(=O)[C@@H](Cc1ccc(O)cc1)NC(=O)[C@H]1CCCN1C(=O)[C@@H](CCCNC(=N)N)NC(=O)[C@H](N)Cc1c[nH]cn1)C(=O)N[C@H](C)C(=O)N[C@H](Cc1c[nH]cn1)C(=O)N[C@H](CCCNC(=N)N)C(=O)N[C@H](CCCCNC(=O)c1cccc(S(=O)(=O)F)c1)C(=O)N[C@H](Cc1ccc(O)cc1)C(=O)N[C@H](CO)C(=O)N[C@H](Cc1ccccc1)C(N)=O  remaining compound (10% human serum; 2 h): 106% and 105%

For quick reference, copied from above:
CC[C@H](C)[C@H](NC(C)=O)C(=O)N[C@@H](CC(C)C)C(=O)N[C@@H](CCCNC(=N)N)C(=O)N[C@@H](Cc1c[nH]c2ccccc12)C(=O)N[C@@H](CO)C(=O)N[C@@H](CCCNC(=N)N)C(=O)N[C@@H](CCCCN)C(=O)N[C@@H](CC(C)C)C(=O)N1CCC[C@H]1C(=O)N[C@@H](CS)C(=O)N[C@H](C(=O)N[C@@H](CO)C(N)=O)C(C)C  remaining activity (12G5 competition, SUP-T1 cells; human plasma; 20 µM, 2 h, 37 °C): 78 ± 4%
CC[C@@H](C)[C@@H](NC(=O)[C@@H](Cc1ccc(O)cc1)NC(=O)[C@H]1CCCN1C(=O)[C@@H](CCCNC(=N)N)NC(=O)[C@H](N)Cc1c[nH]cn1)C(=O)N[C@H](C)C(=O)N[C@H](Cc1c[nH]cn1)C(=O)N[C@H](CCCNC(=N)N)C(=O)N[C@@H](C(=O)N[C@H](Cc1ccc(O)cc1)C(=O)N[C@H](CO)C(=O)N[C@H](Cc1ccccc1)C(N)=O)C(C)C  remaining compound (10% human serum; 72 h): 93.1% and 92.4% and 91.6%
